Experimental data of several laboratories.
Each line is one published result; not all experiments were run side by side. ± gives the spread as reported.
Fibroin-modulator-binding protein-1: Fibroin-modulator-binding protein-1 99-193 (Bombyx mori, UniProt Q5FBS0)
SPT15/TOA1/TOA2/SUA7 1-240; 1-286; 1-122; 1-345: SPT15/TOA1/TOA2/SUA7 1-240; 1-286; 1-122; 1-345 (Saccharomyces cerevisiae)
TARDBP: TARDBP 102-269 (Homo sapiens, UniProt Q13148)
YAP1 full length assumed: YAP1 full length assumed (Saccharomyces cerevisiae, UniProt P19880)
Chain of UniProt P19880 (whole entry, looked up): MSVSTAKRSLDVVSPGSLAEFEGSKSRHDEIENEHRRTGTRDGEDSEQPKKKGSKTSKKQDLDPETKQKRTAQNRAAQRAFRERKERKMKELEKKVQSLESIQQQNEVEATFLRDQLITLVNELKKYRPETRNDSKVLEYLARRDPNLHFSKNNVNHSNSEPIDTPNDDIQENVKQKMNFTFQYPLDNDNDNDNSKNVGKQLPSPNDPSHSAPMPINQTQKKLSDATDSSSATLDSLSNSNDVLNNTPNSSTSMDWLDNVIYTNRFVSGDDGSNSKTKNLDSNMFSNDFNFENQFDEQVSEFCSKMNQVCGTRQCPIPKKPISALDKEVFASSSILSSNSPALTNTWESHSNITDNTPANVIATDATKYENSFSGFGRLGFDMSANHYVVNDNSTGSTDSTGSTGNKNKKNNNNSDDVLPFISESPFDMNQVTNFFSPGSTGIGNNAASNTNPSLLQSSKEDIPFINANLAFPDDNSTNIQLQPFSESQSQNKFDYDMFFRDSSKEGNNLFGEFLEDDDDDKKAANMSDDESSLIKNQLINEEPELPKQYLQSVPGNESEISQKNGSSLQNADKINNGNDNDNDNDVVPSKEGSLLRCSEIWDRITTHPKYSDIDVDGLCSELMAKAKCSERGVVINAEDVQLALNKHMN
allR full length assumed: allR full length assumed (Escherichia coli, UniProt P0ACN4)
Chain of UniProt P0ACN4 (whole entry, looked up): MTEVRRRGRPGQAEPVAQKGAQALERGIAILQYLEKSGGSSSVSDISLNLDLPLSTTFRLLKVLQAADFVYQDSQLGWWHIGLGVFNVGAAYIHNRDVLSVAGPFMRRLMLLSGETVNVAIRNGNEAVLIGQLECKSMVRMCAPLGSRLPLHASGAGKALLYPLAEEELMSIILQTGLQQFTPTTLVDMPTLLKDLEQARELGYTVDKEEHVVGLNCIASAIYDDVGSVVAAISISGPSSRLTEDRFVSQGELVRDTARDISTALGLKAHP
Chain of UniProt P32787 (whole entry, unmodified, looked up): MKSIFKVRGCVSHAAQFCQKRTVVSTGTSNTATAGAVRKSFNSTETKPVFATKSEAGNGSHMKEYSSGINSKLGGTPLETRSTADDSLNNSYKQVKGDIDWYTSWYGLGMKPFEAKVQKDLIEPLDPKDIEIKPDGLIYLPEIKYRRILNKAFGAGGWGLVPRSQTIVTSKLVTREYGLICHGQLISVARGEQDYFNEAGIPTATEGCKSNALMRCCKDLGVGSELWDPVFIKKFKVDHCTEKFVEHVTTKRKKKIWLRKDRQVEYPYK
Chain of UniProt Q4VGL6 (whole entry, looked up): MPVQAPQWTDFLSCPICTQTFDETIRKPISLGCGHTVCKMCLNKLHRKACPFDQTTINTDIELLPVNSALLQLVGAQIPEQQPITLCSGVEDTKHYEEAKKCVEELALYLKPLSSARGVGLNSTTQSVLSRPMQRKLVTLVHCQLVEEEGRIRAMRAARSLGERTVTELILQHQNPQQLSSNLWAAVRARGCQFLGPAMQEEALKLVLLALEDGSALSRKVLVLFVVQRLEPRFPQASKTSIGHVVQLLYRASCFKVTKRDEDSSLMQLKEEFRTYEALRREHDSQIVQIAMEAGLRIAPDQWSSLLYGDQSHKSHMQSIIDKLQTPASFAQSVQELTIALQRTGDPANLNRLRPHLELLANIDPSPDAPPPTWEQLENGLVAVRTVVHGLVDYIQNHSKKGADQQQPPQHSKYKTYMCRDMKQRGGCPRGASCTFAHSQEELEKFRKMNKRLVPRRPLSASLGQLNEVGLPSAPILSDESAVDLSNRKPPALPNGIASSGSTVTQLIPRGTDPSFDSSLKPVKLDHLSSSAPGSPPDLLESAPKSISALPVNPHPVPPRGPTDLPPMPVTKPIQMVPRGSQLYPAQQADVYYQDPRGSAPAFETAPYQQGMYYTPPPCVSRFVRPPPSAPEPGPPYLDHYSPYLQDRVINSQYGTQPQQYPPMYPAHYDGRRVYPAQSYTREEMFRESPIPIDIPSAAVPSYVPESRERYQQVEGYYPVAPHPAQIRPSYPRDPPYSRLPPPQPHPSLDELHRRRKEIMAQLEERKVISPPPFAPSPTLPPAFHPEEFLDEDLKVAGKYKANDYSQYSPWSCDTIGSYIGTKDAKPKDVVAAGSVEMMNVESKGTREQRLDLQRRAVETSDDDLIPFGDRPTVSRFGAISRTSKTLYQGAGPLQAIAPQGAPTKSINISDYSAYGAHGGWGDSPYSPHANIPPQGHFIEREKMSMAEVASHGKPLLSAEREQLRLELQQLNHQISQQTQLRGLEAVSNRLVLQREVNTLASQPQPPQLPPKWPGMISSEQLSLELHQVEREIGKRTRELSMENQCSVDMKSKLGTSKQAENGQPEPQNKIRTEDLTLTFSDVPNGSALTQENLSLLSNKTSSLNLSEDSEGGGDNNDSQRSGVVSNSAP
Chain of UniProt Q00059 (whole entry, looked up): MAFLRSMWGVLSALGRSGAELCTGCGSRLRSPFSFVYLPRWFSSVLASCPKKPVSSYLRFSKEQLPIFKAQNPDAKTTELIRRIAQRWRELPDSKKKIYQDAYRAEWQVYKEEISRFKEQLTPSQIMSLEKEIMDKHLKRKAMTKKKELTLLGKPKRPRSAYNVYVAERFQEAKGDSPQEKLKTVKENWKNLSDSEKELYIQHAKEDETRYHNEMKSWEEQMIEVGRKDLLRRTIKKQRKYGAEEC
Chain of UniProt P46063 (whole entry, looked up): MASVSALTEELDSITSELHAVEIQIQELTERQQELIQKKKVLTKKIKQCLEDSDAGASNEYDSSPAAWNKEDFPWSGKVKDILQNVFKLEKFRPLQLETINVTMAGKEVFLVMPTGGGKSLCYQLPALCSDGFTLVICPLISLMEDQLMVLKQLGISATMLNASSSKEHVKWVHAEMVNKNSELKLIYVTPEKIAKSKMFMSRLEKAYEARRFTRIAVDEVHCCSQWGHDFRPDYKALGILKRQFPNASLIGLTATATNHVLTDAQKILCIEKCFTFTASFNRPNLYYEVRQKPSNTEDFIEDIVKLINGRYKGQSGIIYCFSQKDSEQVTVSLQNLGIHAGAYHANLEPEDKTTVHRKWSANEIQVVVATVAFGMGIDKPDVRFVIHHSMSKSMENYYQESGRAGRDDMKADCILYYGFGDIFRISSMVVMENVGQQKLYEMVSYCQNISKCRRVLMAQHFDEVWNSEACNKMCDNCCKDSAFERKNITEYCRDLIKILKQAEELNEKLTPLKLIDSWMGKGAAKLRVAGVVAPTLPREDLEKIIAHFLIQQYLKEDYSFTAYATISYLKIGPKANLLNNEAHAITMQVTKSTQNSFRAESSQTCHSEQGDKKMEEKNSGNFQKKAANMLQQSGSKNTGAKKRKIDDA
Chain of UniProt P0A7G6 (whole entry, unmodified, looked up): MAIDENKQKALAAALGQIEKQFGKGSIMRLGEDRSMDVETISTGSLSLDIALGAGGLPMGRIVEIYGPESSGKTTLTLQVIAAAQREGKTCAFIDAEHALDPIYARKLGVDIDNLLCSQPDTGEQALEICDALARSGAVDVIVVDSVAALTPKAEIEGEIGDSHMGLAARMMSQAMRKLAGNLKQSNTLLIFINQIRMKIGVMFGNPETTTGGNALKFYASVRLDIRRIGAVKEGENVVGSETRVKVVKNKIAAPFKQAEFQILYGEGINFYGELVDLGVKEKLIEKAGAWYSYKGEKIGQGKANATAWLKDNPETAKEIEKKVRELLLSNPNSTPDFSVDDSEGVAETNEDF
Chain of UniProt P01185 (whole entry, looked up): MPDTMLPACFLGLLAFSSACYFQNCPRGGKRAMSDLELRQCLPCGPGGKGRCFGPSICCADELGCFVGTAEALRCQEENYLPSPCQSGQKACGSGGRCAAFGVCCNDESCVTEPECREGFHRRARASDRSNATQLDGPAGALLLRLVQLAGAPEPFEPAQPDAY
Chain of UniProt P43243 (whole entry, looked up): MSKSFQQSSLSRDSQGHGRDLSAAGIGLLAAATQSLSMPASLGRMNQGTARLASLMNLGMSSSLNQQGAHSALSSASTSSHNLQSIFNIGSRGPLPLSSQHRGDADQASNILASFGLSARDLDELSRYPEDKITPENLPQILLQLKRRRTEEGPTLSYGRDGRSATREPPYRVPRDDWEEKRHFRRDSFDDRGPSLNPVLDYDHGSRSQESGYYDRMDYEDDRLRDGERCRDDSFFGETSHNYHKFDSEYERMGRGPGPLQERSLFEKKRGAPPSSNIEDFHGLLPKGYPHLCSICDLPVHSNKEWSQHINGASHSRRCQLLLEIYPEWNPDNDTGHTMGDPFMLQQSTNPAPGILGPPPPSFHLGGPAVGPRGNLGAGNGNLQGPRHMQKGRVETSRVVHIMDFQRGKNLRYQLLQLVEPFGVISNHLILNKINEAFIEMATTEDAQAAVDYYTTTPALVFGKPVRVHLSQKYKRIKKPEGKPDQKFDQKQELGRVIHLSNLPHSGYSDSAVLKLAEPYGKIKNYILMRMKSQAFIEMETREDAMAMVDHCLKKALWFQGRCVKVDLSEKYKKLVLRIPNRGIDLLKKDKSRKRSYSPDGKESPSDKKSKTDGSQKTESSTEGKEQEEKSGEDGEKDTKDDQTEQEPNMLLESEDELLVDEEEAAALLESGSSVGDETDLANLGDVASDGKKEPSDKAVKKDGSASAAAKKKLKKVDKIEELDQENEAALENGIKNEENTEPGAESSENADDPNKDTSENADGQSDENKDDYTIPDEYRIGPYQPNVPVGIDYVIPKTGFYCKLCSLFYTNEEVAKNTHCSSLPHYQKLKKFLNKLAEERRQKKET

Substance | target | test | system | conditions | how to read | quantity | value
GGGCUGCUGUGGCAUUUCGAUGCUGCAUCGGC (structured RNA) | DCL1 1732-1811 E1747R/E1750R/E1763R (Arabidopsis thaliana, UniProt Q9SP32) | fluorescence polarisation | folded RNA |  |  | Kd | 0.09 ± 0.011 µM
CTTACGACCTAGGGTGGGTAGGGTGCATTATGTTGGTGGTCGTAAG (DNA hairpin; 8-bp stem, 30-nt loop) | F2 alpha-thrombin (Homo sapiens) | BLI | folded DNA |  |  | Kd | 0.0018 µM
TAAGACACGATGCGATAAAATCTGTTTGTAAAATTTATTAAGGGTACAAATTGCCCTAGC (dsDNA) | CGAS 1-522 K394A (Homo sapiens, UniProt Q8N884) | fluorescence anisotropy | double-stranded DNA, one strand shown |  |  | Kd | 0.111 ± 0.018 µM
GGGAGAACUUCGACCAGAAGUCCUACACUGCGCAUAAUACGUAACUAUCGACCUACCUUUAUGUGCGCAUACAUGGAUCCUC (ssRNA; 2'-fluoro pyrimidines) | integrin alphaV/beta3 31-992/27-718 (Homo sapiens) | SPR | RNA | added: MnCl2 1 mM | higher = more binding | relative binding | 8.8 RU
DNA 1 CACTGGCCGTCTTACGGTCGCTCTGCTCGACG / DNA 2 CGACCGTAAGACGGCCAGTG (dsDNA; 20 bp, 3' 12 nt overhang) | RECQL 63-592 K393A (Bos taurus, UniProt A0JN36) | fluorescence anisotropy | double-stranded DNA | added: Mg2+ 3 mM |  | Kd | 0.0733 ± 0.0079 µM
ATCGATCGATCG (dsDNA) | Fibroin-modulator-binding protein-1 | ITC | double-stranded DNA, one strand shown |  |  | Kd | 2.99 ± 0.362 µM
QGRWDHETIV | human MAGI1-3/6 PDZ construct (MBP fusion) | automated holdup | peptide, purified PDZ protein | concentration not given, unit not given | reference: biotin control resin, higher = stronger binding | binding intensity | 0.0381
AGTTGGCAAGTC (dsDNA) | NFIB full length assumed (Homo sapiens, UniProt O00712) | BLI | double-stranded DNA, one strand shown | added: Zn2+ 1 mM |  | Kd | 0.002 µM
TTAATTAATTAA (dsDNA) | Fibroin-modulator-binding protein-1 | ITC | double-stranded DNA, one strand shown |  |  | Kd | 0.914 ± 0.0665 µM
GAATTCCTATATATTAATGTGGAGCTCCGTTCGTCTCAAGTCAATCGGTCC (dsDNA; 5'-amino-C6 primer) | SPT15/TOA1/TOA2/SUA7 1-240; 1-286; 1-122; 1-345 | array | double-stranded DNA, one strand shown | TBP:TFIIA:TFIIB ternary complex |  | Kd | 0.00209 ± 0.00055 µM
ATTTATATTATTTATTCATATTTATATTTA (ssDNA) | APOBEC3F full length assumed T312P (Homo sapiens, UniProt Q8IUX4) | EMSA | single-stranded DNA |  |  | Kd | 0.917 ± 0.217 µM
AUUCAUUCACAC (ssRNA) | TARDBP | BLI | RNA |  |  | Kd | 1.36 ± 0.6 µM
CGCCAATTATGGAATTATGTAATTATTCAATTATTGAATTATTTAATTCACCAATCTCCGGCGGTATGAC (dsDNA) | YAP1 full length assumed | MITOMI | double-stranded DNA, one strand shown | not purified |  | Kd | 2.6 ± 0.2 µM
DNA 1 AGCTAAAATTTGGACAGCTCTCATTACTAAATTAATCAATTCAATCGGTCC / DNA 2 GGACCGATTGACTTGATTAATTTAGTAATGAGAGCTGTCCAAATTTTAGCT (dsDNA; 5'-amino-C6 primer) | SPT15/TOA1/TOA2/SUA7 1-240; 1-286; 1-122; 1-345 | array | double-stranded DNA | TBP:TFIIA:TFIIB ternary complex |  | Kd | 0.00206 ± 0.0003 µM
GTAAAGTAGGAACGGTATTAATAGAAATGATACTAAAGTACGAAATAATAAACTGGAATTT (dsDNA) | allR full length assumed | BLI | double-stranded DNA, one strand shown |  |  | Kd | 0.139 µM
CTGCTCCGTCCGCCTTCGAGGAGAGGTCGGCATCTTCAAGTCAATCGGTCC (dsDNA; 5'-amino-C6 primer) | SPT15/TOA1/TOA2/SUA7 1-240; 1-286; 1-122; 1-345 | array | double-stranded DNA, one strand shown | TBP:TFIIA:TFIIB ternary complex |  | Kd | 0.00426 ± 0.00089 µM
DNA 1 GGATCTCGACGCTCTCCCTT / DNA 2 GAGAGCGTCGAGATCC (dsDNA; 3' 4-nt overhang, blunt end) | RECQL 49-616 (Homo sapiens, UniProt P46063) | fluorescence anisotropy | double-stranded DNA | Mg2+ 5 mM, without ADPNP |  | Kd | 0.528 ± 0.05 µM
CUCCCUCUCCCUAA (XNA; single strand, 2'-OMe, phosphorothioate backbone) | MATR3 1-847 (Homo sapiens, UniProt P43243) | fluorescence polarization | modified nucleic acid | apparent |  | Kd | 0.166 ± 0.06 µM
TTTTTTTTTTTTTTTTTTTTTTTTTTTTTTTTTTTTTTTTTTTTTTTT (ssDNA) | MGM101 23-269 (Saccharomyces cerevisiae, UniProt P32787) | fluorescence polarization | single-stranded DNA |  |  | Kd | 0.48 ± 0.13 µM
AATTAATTAATT (dsDNA) | Fibroin-modulator-binding protein-1 | ITC | double-stranded DNA, one strand shown |  |  | Kd | 1.93 ± 0.0856 µM

Substance | target | test | system | conditions | how to read | quantity | value
TTCTACGAGATCGTCATGAC (ssDNA) | recA full length assumed E39K (Escherichia coli, UniProt P0A7G6) | BLI | single-stranded DNA | added: ATPgS |  | Kd | 0.14 µM
TAACAGTCACCCCCCAACTAAC (dsDNA) | TFAM 43-246 (Homo sapiens, UniProt Q00059) | fluorescence polarization | double-stranded DNA, one strand shown |  |  | Kd | 0.0019 ± 0.0007 µM
GTTCCTGAATATAAAAGGGGGGGGCGGGGTGGGGGTCAAGTCAATCGGTCC (dsDNA; 5'-amino-C6 primer) | SPT15/TOA1/TOA2/SUA7 1-240; 1-286; 1-122; 1-345 | array | double-stranded DNA, one strand shown | TBP:TFIIA:TFIIB ternary complex |  | Kd | 0.00268 ± 0.00033 µM
AAAGAAAGAAAGAAAGAAAGAAAG (ssRNA) | CGAS 161-522 K394E (Homo sapiens, UniProt Q8N884) | fluorescence anisotropy | RNA |  |  | Kd | 0.537 ± 0.054 µM
UAUUAUAU (ssRNA) | Rc3h1 411-454 (Mus musculus, UniProt Q4VGL6) | ITC | RNA | added: Zn2+ |  | Kd | 14 ± 0.8 µM
AACTAACTAACT (dsDNA) | Fibroin-modulator-binding protein-1 | ITC | double-stranded DNA, one strand shown |  |  | Kd | 1.25 ± 0.0967 µM
TTGATAAGAGGTCATTTTTGCGGATGGCTTAGAGCTTAATTGCTGAATCTGGTGCTGTAGCTCAACATGTTTTAAATATGCAA (ssDNA) | MGM101 23-269 Y139A (Saccharomyces cerevisiae, UniProt P32787) | fluorescence polarization | single-stranded DNA |  |  | Kd | 1.7 ± 0.13 µM
TAAGACACGATGCGATAAAATCTG (dsDNA) | CGAS 1-522 (Homo sapiens, UniProt Q8N884) | fluorescence anisotropy | double-stranded DNA, one strand shown |  |  | Kd | 0.08 ± 0.0056 µM
CACCATCCACTAC / ATGTAGTTGTAGTGGATGGTGGTAC (dsDNA; primer-template) | POLH 1-432 F17S (Homo sapiens, UniProt Q9Y253) | fluorescence polarization |  | added: MgCl2 5 mM |  | Kd | 0.026 ± 0.004 µM
UAGAAGCGGAUUUAGCUCAGUUGGGAGAGCGCCAGACUGAAGAUCUGGAGGUCCUGUGUUCGAUCCACAGAAUUCGCA (tRNA (Saccharomyces cerevisiae)) | RNA-free ribonuclease P 1-192 C114S (Aquifex aeolicus, UniProt O67035) | fluorescence polarization | folded RNA | added: CaCl2 20 mM |  | Kd | 0.19 ± 0.06 µM
TCGGCTGGGAGGGGAGGTGTAGCCGGTCTTTGGGGTCAAGTCAATCGGTCC (dsDNA; 5'-amino-C6 primer) | SPT15/TOA1/TOA2/SUA7 1-240; 1-286; 1-122; 1-345 | array | double-stranded DNA, one strand shown | TBP:TFIIA:TFIIB ternary complex |  | Kd | 0.00587 ± 0.00193 µM
GCGGGGCCCG (ssRNA) | TARDBP | BLI | RNA |  |  | Kd | 1.8 ± 0.4 µM
TTGACAAAATTTGAAAGTTGGAAATATATTCCAATAAATAGAGGTAGGAATAAAATGGCAA (dsDNA) | allR full length assumed | BLI | double-stranded DNA, one strand shown |  |  | Kd | 0.0419 µM
CTCTCGGGACGACGTCCAAGTAGTACGTTTAATTAGGATTTCCGAATTATTGGCATGCGTCGTCCC (DNA; stem-loop; internal amino group) | arginine vasopressin 20-28 (Homo sapiens, UniProt P01185) | FET | folded DNA | apparent |  | Kd | 0.0014 µM
CATACATACATA (dsDNA) | Fibroin-modulator-binding protein-1 | ITC | double-stranded DNA, one strand shown |  |  | Kd | 0.971 ± 0.0933 µM
TATCACAGAAAAAAAGAAAATATAATAAATTAGTATCAAGTCAATCGGTCC (dsDNA; 5'-amino-C6 primer) | SPT15/TOA1/TOA2/SUA7 1-240; 1-286; 1-122; 1-345 | array | double-stranded DNA, one strand shown | TBP:TFIIA:TFIIB ternary complex |  | Kd | 0.00401 ± 0.00104 µM
SEKHFRETEV | human MAGI1-2/6 PDZ construct (MBP fusion) | surface plasmon resonance | peptide | concentration not given | higher = stronger binding | normalised SPR binding response | 34.9 normalised RU
GGGAGAACUUCGACCAGAAGAAACCAGGAGGACGCACAUUACGCAAAAAGUAUCCCUGCCUAUGUGCGCAUACAUGGAUCCUC (ssRNA; 2'-fluoro pyrimidines) | integrin alphaV/beta3 31-992/27-718 (Homo sapiens) | SPR | RNA | added: MnCl2 1 mM | higher = more binding | relative binding | 92.2 RU
TTGTGCTACGGTCTCTCCACCCCCTGCTGCTGCTGTCAAGTCAATCGGTCC (dsDNA; 5'-amino-C6 primer) | SPT15/TOA1/TOA2/SUA7 1-240; 1-286; 1-122; 1-345 | array | double-stranded DNA, one strand shown | TBP:TFIIA:TFIIB ternary complex |  | Kd | 0.00184 ± 0.00067 µM
CGCTGATCACGTGATGACGTGATTACGTGCAGACGTGCATACGTGCCCACGTGCCCTCCGGCGGTATGAC (dsDNA) | YAP1 full length assumed | MITOMI | double-stranded DNA, one strand shown | not purified |  | Kd | 8 ± 1 µM

For quick reference, copied from above:
Substance | target | test | system | conditions | how to read | quantity | value
TTAATTAATTAA (dsDNA) | Fibroin-modulator-binding protein-1 | ITC | double-stranded DNA, one strand shown |  |  | Kd | 0.914 ± 0.0665 µM
DNA 1 GGATCTCGACGCTCTCCCTT / DNA 2 GAGAGCGTCGAGATCC (dsDNA; 3' 4-nt overhang, blunt end) | RECQL 49-616 (Homo sapiens, UniProt P46063) | fluorescence anisotropy | double-stranded DNA | Mg2+ 5 mM, without ADPNP |  | Kd | 0.528 ± 0.05 µM
CTCTCGGGACGACGTCCAAGTAGTACGTTTAATTAGGATTTCCGAATTATTGGCATGCGTCGTCCC (DNA; stem-loop; internal amino group) | arginine vasopressin 20-28 (Homo sapiens, UniProt P01185) | FET | folded DNA | apparent |  | Kd | 0.0014 µM
ATCGATCGATCG (dsDNA) | Fibroin-modulator-binding protein-1 | ITC | double-stranded DNA, one strand shown |  |  | Kd | 2.99 ± 0.362 µM
AUUCAUUCACAC (ssRNA) | TARDBP | BLI | RNA |  |  | Kd | 1.36 ± 0.6 µM
